{"data": "Measured values from different studies", "note": "Every numbered part comes from another study and shows a few of its results, in no order. Substitutions count along the parent as printed."}
{"data": "Set 1", "target": "Centromere-binding protein 1, full length, His-tagged (CBF1, Saccharomyces cerevisiae, UniProt P17106, residues 1-351)", "method": "competition protein-binding microarray", "form": "double-stranded DNA, one strand shown", "medium": "in vitro", "tested at": "2 µM", "notes": "whole 60-bp probe, lowest competitor level", "added": "Pho4 competitor, 0.05 µM", "direction": "higher = stronger binding", "constant ends, left off below": "… GTCTTGATTCGCTTGACGCTGCTG", "sequence of UniProt P17106 (whole entry, looked up)": "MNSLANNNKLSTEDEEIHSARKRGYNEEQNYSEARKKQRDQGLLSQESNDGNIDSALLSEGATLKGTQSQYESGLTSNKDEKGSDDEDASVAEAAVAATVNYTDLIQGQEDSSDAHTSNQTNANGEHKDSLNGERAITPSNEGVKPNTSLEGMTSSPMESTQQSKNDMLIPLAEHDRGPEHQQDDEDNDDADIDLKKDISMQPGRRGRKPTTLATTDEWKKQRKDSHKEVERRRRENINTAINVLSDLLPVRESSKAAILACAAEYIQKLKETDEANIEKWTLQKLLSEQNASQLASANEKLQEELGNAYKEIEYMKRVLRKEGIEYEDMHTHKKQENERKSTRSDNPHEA"}
{"Oligonucleotide": "CTTCTGTAAATTTGACTGGTGGGTGGACGCGCCCCG", "fluorescence intensity [a.u.]": 69.5}
{"Oligonucleotide": "CGTCCTAGCGATTGACGCGTGGGTGCCATGAGGAAG", "fluorescence intensity [a.u.]": 75.9}
{"Oligonucleotide": "GGAAACAGCTACCCCGGCGTGCCGAGTGGCTCTCTG", "fluorescence intensity [a.u.]": 46.1}
{"Oligonucleotide": "TGAACCCTTGATATAAACGTGATGGTTATTATCGGT", "fluorescence intensity [a.u.]": 457}
{"Oligonucleotide": "CATACCCAACCTTGTCACATCACTTAAGATATTTGT", "fluorescence intensity [a.u.]": 80.2}
{"Oligonucleotide": "CTAACGAAGGTTTTTCACGTGAAATACAAGCCAAGT", "fluorescence intensity [a.u.]": 914}
{"Oligonucleotide": "CTAACGAAGGTTTGTTTCGTGGGTGACAAGCCAAGT", "fluorescence intensity [a.u.]": 64.8}
{"Oligonucleotide": "CTTTCCCGATCTTGCGAGGTGGGTGTAGCACATTTG", "fluorescence intensity [a.u.]": 63.9}
{"data": "Set 2", "target": "Interferon regulatory factor 5, full length, phosphomimetic (IRF5, Homo sapiens, UniProt Q13568-2, residues 1-514, K96S/S451D/S453D/S456D/S462D)", "method": "protein-binding microarray", "form": "double-stranded DNA, one strand shown", "medium": "in vitro", "tested at": "250 nM", "notes": "60-bp whole probe", "added": "salmon DNA 0.4 mg/ml", "baseline": "random background probes", "direction": "higher = stronger binding", "constant ends, left off below": "GCCTAGCAC … GTCTTGATTCGCTTGACGCTGCTG"}
{"Oligonucleotide": "CTTACTTCCCAATTGTCTTTGTGCTAG", "log fluorescence [z-score]": 0.569}
{"Oligonucleotide": "TTCGATATCGGGACTGGATTAGTGCTA", "log fluorescence [z-score]": 2.13}
{"Oligonucleotide": "TTACGTTTCCTACTGCTTTAGTGCTAG", "log fluorescence [z-score]": 1.36}
{"Oligonucleotide": "CACGGACTGCTACTGCTGACGTGCTAG", "log fluorescence [z-score]": -0.626}
{"Oligonucleotide": "GACGATAACAGACTGGAGACGTGCTAG", "log fluorescence [z-score]": 0.366}
{"Oligonucleotide": "GACGGTAACCTTCTCCTGACGTGCTAG", "log fluorescence [z-score]": -0.13}
{"Oligonucleotide": "TCAATCTTCACTCTTAATTAGTGCTAG", "log fluorescence [z-score]": 1.02}
{"Oligonucleotide": "TTAGAACTGAGTCTCGATGAGTGCTAG", "log fluorescence [z-score]": 0.272}
{"Oligonucleotide": "TCATCCTTTACTTTCTTACTGTGCTAG", "log fluorescence [z-score]": 1.8}
{"data": "Set 3", "target": "CCND1, cyclin fold, Cln2 fusion (human)", "method": "yeast growth competition, sequencing", "medium": "yeast", "notes": "weak parent motif", "baseline": "not given", "direction": "higher = stronger binding", "parent": "SAMHD1 docking peptide (human); ASKSRVQLFKDDP; partner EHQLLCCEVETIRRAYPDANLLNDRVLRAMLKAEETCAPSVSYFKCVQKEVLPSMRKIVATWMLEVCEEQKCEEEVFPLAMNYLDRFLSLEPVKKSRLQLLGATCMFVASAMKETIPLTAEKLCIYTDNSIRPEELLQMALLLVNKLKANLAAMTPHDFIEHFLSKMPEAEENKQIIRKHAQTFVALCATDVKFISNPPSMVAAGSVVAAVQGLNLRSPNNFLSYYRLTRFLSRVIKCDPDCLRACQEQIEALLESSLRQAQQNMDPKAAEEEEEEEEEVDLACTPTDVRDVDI"}
{"Substitution": "ASKSRIQLFKDDP [V6I]", "normalised enrichment score": 0.252}
{"Substitution": "ASKSRVQLFKVDP [D11V]", "normalised enrichment score": 0.177}
{"Substitution": "AAKSRVQLFKDDP [S2A]", "normalised enrichment score": 0.388}
{"Substitution": "ASKSSVQLFKDDP [R5S]", "normalised enrichment score": 0.334}
{"Substitution": "ASKSRVQLFCDDP [K10C]", "normalised enrichment score": 0.697}
{"Substitution": "AHKSRVQLFKDDP [S2H]", "normalised enrichment score": 0.634}
{"Substitution": "ASKSRVQLTKDDP [F9T]", "normalised enrichment score": -0.0424}
{"Substitution": "ASKSRVQYFKDDP [L8Y]", "normalised enrichment score": 0.0622}
{"Substitution": "ASKSRVQLFMDDP [K10M]", "normalised enrichment score": 0.801}
{"Substitution": "ASKYRVQLFKDDP [S4Y]", "normalised enrichment score": 0.381}
{"data": "Other studies, line by line"}
{"Molecule": "PhoQ, residues 284 288 289 292 302 303 TLSLKA", "target": "PhoP, residues 12 14 15 18 19 TPWLV (Escherichia coli, UniProt P23836)", "assay": "Sort-seq, refers to: YFP reporter", "test system": "E. coli", "conditions": "PhoQ-PhoP variant library, added: 10 µM Mg2+", "how to read": "baseline: high Mg2+ state, higher = stronger signaling", "quantity": "fold induction", "result": 6.12}
